Assay results from different studies.
Lines come from different studies, so protocols differ. ± gives the spread as reported.
Trypanothione synthetase: Trypanothione synthetase (Leishmania infantum, UniProt A4I2Z3)
MT-CYB: MT-CYB (Plasmodium falciparum, UniProt Q02768)
Chain of UniProt Q02768 (whole entry, looked up): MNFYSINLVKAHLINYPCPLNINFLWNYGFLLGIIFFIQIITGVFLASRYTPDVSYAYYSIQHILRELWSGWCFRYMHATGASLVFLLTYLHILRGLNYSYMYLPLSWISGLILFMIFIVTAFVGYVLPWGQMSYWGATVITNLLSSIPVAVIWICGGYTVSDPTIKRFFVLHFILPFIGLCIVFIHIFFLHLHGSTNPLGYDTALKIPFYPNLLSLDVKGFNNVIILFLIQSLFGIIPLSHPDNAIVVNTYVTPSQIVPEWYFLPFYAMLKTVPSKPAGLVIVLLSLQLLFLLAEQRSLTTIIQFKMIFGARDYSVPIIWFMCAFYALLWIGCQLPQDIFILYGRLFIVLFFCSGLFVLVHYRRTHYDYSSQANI
APP: Amyloid-beta precursor protein (APP, Homo sapiens, UniProt P05067)
Chain of UniProt P05067 (whole entry, looked up): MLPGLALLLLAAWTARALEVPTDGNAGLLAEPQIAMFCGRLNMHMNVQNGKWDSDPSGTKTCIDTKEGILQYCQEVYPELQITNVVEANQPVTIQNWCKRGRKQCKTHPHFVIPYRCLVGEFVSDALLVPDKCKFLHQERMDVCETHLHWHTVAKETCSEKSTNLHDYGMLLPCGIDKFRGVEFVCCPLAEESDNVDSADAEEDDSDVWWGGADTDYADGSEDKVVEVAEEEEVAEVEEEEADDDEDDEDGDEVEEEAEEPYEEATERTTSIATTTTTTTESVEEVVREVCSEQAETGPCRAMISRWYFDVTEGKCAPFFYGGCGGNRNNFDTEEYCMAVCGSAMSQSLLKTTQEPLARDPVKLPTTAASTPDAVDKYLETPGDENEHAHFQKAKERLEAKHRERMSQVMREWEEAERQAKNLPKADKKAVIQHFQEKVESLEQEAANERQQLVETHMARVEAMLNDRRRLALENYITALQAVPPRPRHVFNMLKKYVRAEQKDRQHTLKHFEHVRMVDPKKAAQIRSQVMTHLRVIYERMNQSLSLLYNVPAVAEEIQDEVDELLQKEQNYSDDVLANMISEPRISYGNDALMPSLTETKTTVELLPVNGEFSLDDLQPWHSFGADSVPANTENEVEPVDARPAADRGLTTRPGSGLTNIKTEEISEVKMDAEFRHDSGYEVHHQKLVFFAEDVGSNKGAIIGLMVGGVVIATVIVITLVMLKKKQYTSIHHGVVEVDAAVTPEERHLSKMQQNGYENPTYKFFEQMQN
PPIA: Peptidyl-prolyl cis-trans isomerase A (PPIA, Homo sapiens, UniProt P62937)
Chain of UniProt P62937 (whole entry, looked up): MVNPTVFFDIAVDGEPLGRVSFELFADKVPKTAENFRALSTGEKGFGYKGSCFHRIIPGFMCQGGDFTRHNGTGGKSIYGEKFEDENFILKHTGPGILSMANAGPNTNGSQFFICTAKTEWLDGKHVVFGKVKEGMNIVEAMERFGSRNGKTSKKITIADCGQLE
SMPD1: Sphingomyelin phosphodiesterase (SMPD1, Homo sapiens, UniProt P17405)
Chain of UniProt P17405 (whole entry, looked up): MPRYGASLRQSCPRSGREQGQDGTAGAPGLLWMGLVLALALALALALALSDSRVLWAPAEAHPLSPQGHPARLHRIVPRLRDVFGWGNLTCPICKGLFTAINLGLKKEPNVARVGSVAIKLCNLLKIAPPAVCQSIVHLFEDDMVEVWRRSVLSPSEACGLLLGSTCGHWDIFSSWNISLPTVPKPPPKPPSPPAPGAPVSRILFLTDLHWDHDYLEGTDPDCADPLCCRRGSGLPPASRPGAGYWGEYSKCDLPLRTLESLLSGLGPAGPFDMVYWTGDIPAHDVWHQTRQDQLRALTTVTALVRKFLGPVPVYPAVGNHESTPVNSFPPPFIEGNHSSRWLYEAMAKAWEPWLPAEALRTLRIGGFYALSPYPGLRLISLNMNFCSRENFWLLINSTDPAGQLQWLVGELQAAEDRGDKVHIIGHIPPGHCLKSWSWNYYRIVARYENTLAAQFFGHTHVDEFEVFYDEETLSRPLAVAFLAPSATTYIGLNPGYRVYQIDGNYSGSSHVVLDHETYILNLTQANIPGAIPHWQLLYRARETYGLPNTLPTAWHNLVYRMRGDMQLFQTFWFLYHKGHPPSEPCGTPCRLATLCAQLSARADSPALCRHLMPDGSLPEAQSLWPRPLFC
PIP4K2C: Phosphatidylinositol 5-phosphate 4-kinase type-2 gamma (PIP4K2C, Homo sapiens, UniProt Q8TBX8)
Chain of UniProt Q8TBX8 (whole entry, looked up): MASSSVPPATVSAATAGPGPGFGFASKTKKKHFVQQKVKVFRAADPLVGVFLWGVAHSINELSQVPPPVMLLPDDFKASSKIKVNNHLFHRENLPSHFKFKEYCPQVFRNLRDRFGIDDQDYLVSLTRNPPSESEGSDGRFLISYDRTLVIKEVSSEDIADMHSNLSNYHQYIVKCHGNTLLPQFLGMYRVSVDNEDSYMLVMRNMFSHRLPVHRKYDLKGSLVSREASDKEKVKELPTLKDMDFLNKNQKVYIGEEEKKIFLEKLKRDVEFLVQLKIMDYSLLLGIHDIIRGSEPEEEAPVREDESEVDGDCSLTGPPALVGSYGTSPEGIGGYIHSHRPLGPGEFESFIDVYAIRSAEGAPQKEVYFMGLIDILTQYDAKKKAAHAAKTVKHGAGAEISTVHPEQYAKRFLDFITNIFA
Chain of UniProt P09211 (whole entry, looked up): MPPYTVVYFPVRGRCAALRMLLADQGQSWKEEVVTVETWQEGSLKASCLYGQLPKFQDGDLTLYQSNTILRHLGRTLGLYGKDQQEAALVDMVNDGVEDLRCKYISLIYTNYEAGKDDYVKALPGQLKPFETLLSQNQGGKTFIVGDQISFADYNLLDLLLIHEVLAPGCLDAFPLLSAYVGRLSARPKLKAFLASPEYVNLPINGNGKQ
Chain of UniProt Q00195 (whole entry, looked up): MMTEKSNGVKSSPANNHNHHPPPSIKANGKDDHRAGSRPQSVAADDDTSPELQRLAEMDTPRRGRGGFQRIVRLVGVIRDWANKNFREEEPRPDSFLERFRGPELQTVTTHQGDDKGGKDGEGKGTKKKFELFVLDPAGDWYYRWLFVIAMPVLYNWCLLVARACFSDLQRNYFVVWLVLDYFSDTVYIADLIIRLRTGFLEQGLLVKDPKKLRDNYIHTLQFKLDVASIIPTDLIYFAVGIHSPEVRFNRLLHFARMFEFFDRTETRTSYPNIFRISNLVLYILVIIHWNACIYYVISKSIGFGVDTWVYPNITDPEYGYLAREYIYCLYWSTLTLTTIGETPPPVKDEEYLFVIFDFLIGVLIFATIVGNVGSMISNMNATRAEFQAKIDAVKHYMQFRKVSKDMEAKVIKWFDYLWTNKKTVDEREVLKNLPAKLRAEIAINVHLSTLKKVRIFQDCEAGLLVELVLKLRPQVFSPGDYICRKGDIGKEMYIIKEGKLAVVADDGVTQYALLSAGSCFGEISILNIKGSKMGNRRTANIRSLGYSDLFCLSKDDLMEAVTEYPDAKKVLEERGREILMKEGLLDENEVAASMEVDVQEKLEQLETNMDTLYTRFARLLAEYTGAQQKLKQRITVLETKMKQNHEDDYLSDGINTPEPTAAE
Chain of UniProt P50750 (whole entry, looked up): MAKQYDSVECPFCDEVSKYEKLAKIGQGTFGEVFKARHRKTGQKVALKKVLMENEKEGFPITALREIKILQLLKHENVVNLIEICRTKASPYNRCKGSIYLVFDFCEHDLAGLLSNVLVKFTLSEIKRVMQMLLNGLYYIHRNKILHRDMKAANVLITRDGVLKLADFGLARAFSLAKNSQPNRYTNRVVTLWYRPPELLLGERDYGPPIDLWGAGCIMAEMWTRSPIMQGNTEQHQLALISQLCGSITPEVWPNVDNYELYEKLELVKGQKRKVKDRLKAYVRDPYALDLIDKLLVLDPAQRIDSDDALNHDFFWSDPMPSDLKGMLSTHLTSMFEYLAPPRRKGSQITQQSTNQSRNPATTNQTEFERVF
Chain of UniProt P47712 (whole entry, looked up): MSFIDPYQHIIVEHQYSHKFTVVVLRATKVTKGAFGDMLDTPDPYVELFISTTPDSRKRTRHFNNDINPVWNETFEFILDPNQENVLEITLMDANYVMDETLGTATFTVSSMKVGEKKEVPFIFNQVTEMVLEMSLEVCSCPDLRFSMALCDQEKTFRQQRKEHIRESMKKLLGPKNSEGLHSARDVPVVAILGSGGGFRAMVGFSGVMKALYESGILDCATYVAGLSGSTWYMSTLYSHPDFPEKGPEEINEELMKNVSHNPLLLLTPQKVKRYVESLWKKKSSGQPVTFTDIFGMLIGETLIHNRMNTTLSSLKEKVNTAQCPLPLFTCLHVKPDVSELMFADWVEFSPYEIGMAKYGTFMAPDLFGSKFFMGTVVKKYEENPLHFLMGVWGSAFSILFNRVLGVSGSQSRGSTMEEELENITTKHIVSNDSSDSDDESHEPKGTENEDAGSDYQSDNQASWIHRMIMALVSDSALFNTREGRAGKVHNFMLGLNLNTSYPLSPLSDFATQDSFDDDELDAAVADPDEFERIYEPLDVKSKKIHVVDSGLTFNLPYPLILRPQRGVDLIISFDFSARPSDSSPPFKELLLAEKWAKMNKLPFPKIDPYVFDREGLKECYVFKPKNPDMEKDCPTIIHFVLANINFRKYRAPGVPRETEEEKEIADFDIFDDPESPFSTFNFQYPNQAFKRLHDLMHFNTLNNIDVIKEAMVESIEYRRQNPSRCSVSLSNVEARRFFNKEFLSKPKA

With `O=C(CN1C(=O)Cc2c([nH]c3ccc(Br)cc23)-c2ccc(Cl)cc21)N1CCCCC1` the inhibition was 39% (Trypanothione synthetase; enzyme activity; 30 µM).
`Cc1cccc2nc(-c3ccc(-c4ccc(CN5CC(C)OC(C)C5)cc4)cc3)[nH]c12.O=C(O)C(F)(F)F` (centres unmarked) gave an inhibition of 49% (MT-CYB; enzyme activity, inhibitor; 0.5 µM).
`C[C@H]1O[C@H](O[C@H]2[C@H](O)[C@@H](O)[C@@H](O[C@H]3[C@H](O)[C@@H](O)C(O)O[C@@H]3CO)O[C@@H]2CO)[C@H](O)[C@@H](O)[C@@H]1N[C@H]1C=C(CO)[C@@H](O)[C@H](O)[C@H]1O` (some centres unmarked) gave an inhibition of 66% (Lysosomal alpha-glucosidase (GAA, Homo sapiens, UniProt P10253); enzyme activity, inhibitor, fluorescence; 1.43 mM, pH 4, lysate).
`CC[C@H](C)[C@H](NC(=O)[C@@H](NC(=O)[C@@H](N)C(C)C)C(C)C)C(=O)N[C@H](C)C(N)=O` gave an inhibition of 68.6% (APP; amyloid aggregation, inhibitor, fluorescence; 2 µM, 24 h).
For `Cc1cccc(C)c1C(=O)OCC(=O)[C@H](CCCCN)NC(=O)[C@H](CCCN=C(N)N)NC(=O)OCc1ccccc1`, inhibition read “no inhibition” (Cathepsin B (CTSB, Homo sapiens, UniProt P07858); peptide library cleavage, MSP-MS; 64 nM, 1 h, pH 4.6, 30 min preincubation).
`COCCN(C)c1ccc(C(=O)Nc2ccccc2)cc1NS(=O)(=O)Cc1ccccc1.O=C(O)C(F)(F)F` has an inhibition of 56.2% (MT-CYB; enzyme activity, inhibitor; 0.5 µM).
For `LLHNYGVYT`, the inhibition was 25% (ITGAM (Homo sapiens, UniProt P11215); binding to fibrinogen D fragment; peptide; 200 µM, added: fibrinogen D fragment 1 µg/mL).
`CC(C)(C)c1cnc(CSc2cnc(NC(=O)C3CCNCC3)s2)o1` gave an inhibition of 15.9% (Cyclin-dependent kinase 9 (CDK9, Homo sapiens, UniProt P50750); probe labeling, KiNativ live-cell profiling; MOLT-4 CRBN knockout; 0.25 µM).
`CCOC(=O)CN1C(=O)Cc2c([nH]c3ccc(Br)cc23)-c2ccc(Cl)cc21` gave an inhibition of 36% (Trypanothione synthetase; enzyme activity; 30 µM).
`CC[C@H](C)[C@H](NC(=O)[C@@H](NC(=O)CN)C(C)C)C(=O)N[C@@H](C)C(N)=O` has an inhibition of 84.4% (APP; amyloid aggregation, inhibitor, fluorescence; 2 µM, 24 h).
`CCCCCCCC(=O)OC[C@H](CO)OC(=O)CCCCCCC` gave an inhibition of 10% (Cyclic nucleotide-gated channel alpha-2 (Cnga2, Rattus norvegicus, UniProt Q00195); cGMP-activated current, inside-out patch, Xenopus oocytes; 0.5 µM, added: cGMP 100 µM, saturating).
`Fc1ccc(Cn2c(NCc3ccco3)nc3ccccc32)c(Cl)c1` has an inhibition of 24% (Short transient receptor potential channel 5 (TRPC5, Homo sapiens, UniProt Q9UL62); ion current, inhibitor, automated patch clamp; 3 µM; relative to: reference inhibitor).
With `CC[C@H](C)[C@H](NC(=O)[C@@H](NC(=O)[C@@H](N)Cc1ccccc1)C(C)C)C(=O)N[C@@H](C)C(N)=O` the inhibition was 51.9% (APP; amyloid aggregation, inhibitor, fluorescence; 2 µM, 24 h).
The inhibition of `O=C(O)/C=C/C1=CC(=O)C(=O)C=C1` is reported as 23 to 67% (Glutathione S-transferase P (GSTP1, Homo sapiens, UniProt P09211); enzyme activity; human placenta; 10 to 50 µM, added: CDNB).
With `COc1cc(OC)cc(C(=O)Nc2ccc(Cc3ccc(NC(=O)c4cc(OC)cc(OC)c4)c(C(=O)O)c3)cc2C(=O)O)c1` the inhibition was 12.4% (PPIA; enzyme activity, inhibitor; 10 µM).
`Clc1ccc(SCCOCCN2CCCCCC2)cc1.O=C(O)C(=O)O`: inhibition “inactive” (SMPD1; enzyme activity, inhibitor; concentration not given, added: HMU-PC substrate).
With `C=C(Cl)C(=O)Nc1cc(Nc2nc(Nc3cnn(C)c3)c3sccc3n2)c(OC)cc1N(C)CCN(C)C` the inhibition was 96.7% (Epidermal growth factor receptor (EGFR, Homo sapiens, UniProt P00533, L858R/T790M); enzyme activity, inhibitor, ELISA; 0.1 µM).
The inhibition of `CC[C@H](C)[C@H](NC(=O)C(C)(C)NC(=O)[C@@H](N)C(C)C)C(=O)N[C@@H](C)C(N)=O` is reported as 50% (APP; amyloid aggregation, inhibitor, fluorescence; 4 µM, 24 h).
Under inhibition, `S=c1nc(C2CC2)[nH]c2ccccc12` is recorded as “inhibited” (SMPD1; inhibitor; concentration not given, pH 6.5, added: sphingomyelin substrate).
`Cc1cc(NC(=O)c2cccc(NC(=O)/C=C/CN(C)C)c2)ccc1Nc1nccc(-c2cccnc2)n1` has an inhibition of 32.2% (PIP4K2C; ATP-biotin probe labeling, KiNativ; A-375; 1 µM, 3 h, second of two sites).
`CNC(=O)[C@H](Cc1c[nH]c2ccccc12)NC(=O)[C@@H](CC(=O)NO)CC(C)C` — result for inhibition: “inhibited” (Matrix metalloproteinase-14, ectodomain (MMP14, Homo sapiens, UniProt P50281); Aβ40 degradation, immunoblotting; 10 µM, 24 h, 37 °C).
With `Cc1noc(NS(=O)(=O)c2ccc(NC(=O)c3cc(-c4cccc(Br)c4)nc4ccccc34)cc2)c1C` the inhibition was 3.2% (PPIA; enzyme activity, inhibitor; 10 µM).
With `CC[C@@H](C)[C@H](NC(=O)C(=O)CCCCc1ccc(OC)cc1)C(=O)NCC(=O)OC(C)(C)C` the inhibition was 57.3 ± 3.3% (Cytosolic phospholipase A2 (PLA2G4A, Homo sapiens, UniProt P47712); enzyme activity, mixed micelle; 0.091 mole fraction).
Under inhibition, `COc1ccc(C2=NN(C(=O)COC(=O)c3ccc(S(C)(=O)=O)c([N+](=O)[O-])c3)C(c3ccco3)C2)cc1` (centres unmarked) is recorded as “inactive” (SMPD1; inhibitor; concentration not given, pH 6.5, added: sphingomyelin substrate).
With `CN(C)C/C=C/C(=O)Nc1cccc(C(=O)Nc2ccc(Nc3nccc(-c4c(-c5ccccc5)nn5ccccc45)n3)cc2)c1` the inhibition was 24.3% (PIP4K2C; ATP-biotin probe labeling, KiNativ; A-375; 1 µM, 3 h, second of two sites).
`COC(=O)c1cc(Cc2ccc(NC(=O)c3ccccc3)c(C(=O)OC)c2)ccc1NC(=O)c1ccccc1` gave an inhibition of 11.2% (PPIA; enzyme activity, inhibitor; 10 µM).
For `CC[C@H](C)[C@H](NC(=O)[C@@H](NC(=O)[C@@H](N)C(C)C)C(C)C)C(=O)N[C@@H](CC(C)C)C(N)=O`, the inhibition was 18.7% (APP; amyloid aggregation, inhibitor, fluorescence; 2 µM, 24 h).
`NS(=O)(=O)c1ccc(N2N=C(c3ccc(F)cc3O)CC2c2ccc(Br)cc2)cc1` (centres unmarked) gave an inhibition of 26% (Carbonic anhydrase 2 (CA2, Homo sapiens, UniProt P00918); enzyme activity, inhibitor, absorbance; 1 mM).
The inhibition of `CC[C@H](C)[C@H](NC(=O)[C@@H](NC(=O)[C@H]1CCCN1)C(C)C)C(=O)N[C@@H](C)C(N)=O` is reported as 52.9% (APP; amyloid aggregation, inhibitor, fluorescence; 4 µM, 24 h).
The inhibition of `COc1cc(OC)cc(C(=O)Nc2ccc(Cc3ccc(NC(=O)c4cc(OC)cc(OC)c4)cc3)cc2)c1` is reported as 43% (PPIA; enzyme activity, inhibitor; 10 µM).
`CC[C@H](C)[C@H](NC(=O)[C@@H](NC(=O)[C@@H](N)C(C)C)C(C)C)C(=O)NC(C)(C)C(N)=O` gave an inhibition of 24.9% (APP; amyloid aggregation, inhibitor, fluorescence; 2 µM, 24 h).
`Clc1cccc(Nc2ccc3c(N4CCCCC4)ncnc3n2)c1` gave an inhibition of 4.76% (MT-CYB; enzyme activity, inhibitor; 0.5 µM).

A few entries again:
`NS(=O)(=O)c1ccc(N2N=C(c3ccc(F)cc3O)CC2c2ccc(Br)cc2)cc1` (centres unmarked) gave an inhibition of 26% (Carbonic anhydrase 2 (CA2, Homo sapiens, UniProt P00918); enzyme activity, inhibitor, absorbance; 1 mM).
The inhibition of `CC[C@H](C)[C@H](NC(=O)[C@@H](NC(=O)[C@H]1CCCN1)C(C)C)C(=O)N[C@@H](C)C(N)=O` is reported as 52.9% (APP; amyloid aggregation, inhibitor, fluorescence; 4 µM, 24 h).
The inhibition of `COc1cc(OC)cc(C(=O)Nc2ccc(Cc3ccc(NC(=O)c4cc(OC)cc(OC)c4)cc3)cc2)c1` is reported as 43% (PPIA; enzyme activity, inhibitor; 10 µM).
`CC[C@H](C)[C@H](NC(=O)[C@@H](NC(=O)[C@@H](N)C(C)C)C(C)C)C(=O)NC(C)(C)C(N)=O` gave an inhibition of 24.9% (APP; amyloid aggregation, inhibitor, fluorescence; 2 µM, 24 h).
`Clc1cccc(Nc2ccc3c(N4CCCCC4)ncnc3n2)c1` gave an inhibition of 4.76% (MT-CYB; enzyme activity, inhibitor; 0.5 µM).
